Published values from different studies.
Lines come from different studies, so protocols differ. “And” joins repeats or separate records; there may be more than shown. ± gives the spread as reported.
dnaK: dnaK (Escherichia coli, UniProt P0A6Y8)
LRP1 CR8 domain: LRP1, CR8 domain (Homo sapiens, UniProt Q07954)
Chain of UniProt Q07954 (whole entry, looked up): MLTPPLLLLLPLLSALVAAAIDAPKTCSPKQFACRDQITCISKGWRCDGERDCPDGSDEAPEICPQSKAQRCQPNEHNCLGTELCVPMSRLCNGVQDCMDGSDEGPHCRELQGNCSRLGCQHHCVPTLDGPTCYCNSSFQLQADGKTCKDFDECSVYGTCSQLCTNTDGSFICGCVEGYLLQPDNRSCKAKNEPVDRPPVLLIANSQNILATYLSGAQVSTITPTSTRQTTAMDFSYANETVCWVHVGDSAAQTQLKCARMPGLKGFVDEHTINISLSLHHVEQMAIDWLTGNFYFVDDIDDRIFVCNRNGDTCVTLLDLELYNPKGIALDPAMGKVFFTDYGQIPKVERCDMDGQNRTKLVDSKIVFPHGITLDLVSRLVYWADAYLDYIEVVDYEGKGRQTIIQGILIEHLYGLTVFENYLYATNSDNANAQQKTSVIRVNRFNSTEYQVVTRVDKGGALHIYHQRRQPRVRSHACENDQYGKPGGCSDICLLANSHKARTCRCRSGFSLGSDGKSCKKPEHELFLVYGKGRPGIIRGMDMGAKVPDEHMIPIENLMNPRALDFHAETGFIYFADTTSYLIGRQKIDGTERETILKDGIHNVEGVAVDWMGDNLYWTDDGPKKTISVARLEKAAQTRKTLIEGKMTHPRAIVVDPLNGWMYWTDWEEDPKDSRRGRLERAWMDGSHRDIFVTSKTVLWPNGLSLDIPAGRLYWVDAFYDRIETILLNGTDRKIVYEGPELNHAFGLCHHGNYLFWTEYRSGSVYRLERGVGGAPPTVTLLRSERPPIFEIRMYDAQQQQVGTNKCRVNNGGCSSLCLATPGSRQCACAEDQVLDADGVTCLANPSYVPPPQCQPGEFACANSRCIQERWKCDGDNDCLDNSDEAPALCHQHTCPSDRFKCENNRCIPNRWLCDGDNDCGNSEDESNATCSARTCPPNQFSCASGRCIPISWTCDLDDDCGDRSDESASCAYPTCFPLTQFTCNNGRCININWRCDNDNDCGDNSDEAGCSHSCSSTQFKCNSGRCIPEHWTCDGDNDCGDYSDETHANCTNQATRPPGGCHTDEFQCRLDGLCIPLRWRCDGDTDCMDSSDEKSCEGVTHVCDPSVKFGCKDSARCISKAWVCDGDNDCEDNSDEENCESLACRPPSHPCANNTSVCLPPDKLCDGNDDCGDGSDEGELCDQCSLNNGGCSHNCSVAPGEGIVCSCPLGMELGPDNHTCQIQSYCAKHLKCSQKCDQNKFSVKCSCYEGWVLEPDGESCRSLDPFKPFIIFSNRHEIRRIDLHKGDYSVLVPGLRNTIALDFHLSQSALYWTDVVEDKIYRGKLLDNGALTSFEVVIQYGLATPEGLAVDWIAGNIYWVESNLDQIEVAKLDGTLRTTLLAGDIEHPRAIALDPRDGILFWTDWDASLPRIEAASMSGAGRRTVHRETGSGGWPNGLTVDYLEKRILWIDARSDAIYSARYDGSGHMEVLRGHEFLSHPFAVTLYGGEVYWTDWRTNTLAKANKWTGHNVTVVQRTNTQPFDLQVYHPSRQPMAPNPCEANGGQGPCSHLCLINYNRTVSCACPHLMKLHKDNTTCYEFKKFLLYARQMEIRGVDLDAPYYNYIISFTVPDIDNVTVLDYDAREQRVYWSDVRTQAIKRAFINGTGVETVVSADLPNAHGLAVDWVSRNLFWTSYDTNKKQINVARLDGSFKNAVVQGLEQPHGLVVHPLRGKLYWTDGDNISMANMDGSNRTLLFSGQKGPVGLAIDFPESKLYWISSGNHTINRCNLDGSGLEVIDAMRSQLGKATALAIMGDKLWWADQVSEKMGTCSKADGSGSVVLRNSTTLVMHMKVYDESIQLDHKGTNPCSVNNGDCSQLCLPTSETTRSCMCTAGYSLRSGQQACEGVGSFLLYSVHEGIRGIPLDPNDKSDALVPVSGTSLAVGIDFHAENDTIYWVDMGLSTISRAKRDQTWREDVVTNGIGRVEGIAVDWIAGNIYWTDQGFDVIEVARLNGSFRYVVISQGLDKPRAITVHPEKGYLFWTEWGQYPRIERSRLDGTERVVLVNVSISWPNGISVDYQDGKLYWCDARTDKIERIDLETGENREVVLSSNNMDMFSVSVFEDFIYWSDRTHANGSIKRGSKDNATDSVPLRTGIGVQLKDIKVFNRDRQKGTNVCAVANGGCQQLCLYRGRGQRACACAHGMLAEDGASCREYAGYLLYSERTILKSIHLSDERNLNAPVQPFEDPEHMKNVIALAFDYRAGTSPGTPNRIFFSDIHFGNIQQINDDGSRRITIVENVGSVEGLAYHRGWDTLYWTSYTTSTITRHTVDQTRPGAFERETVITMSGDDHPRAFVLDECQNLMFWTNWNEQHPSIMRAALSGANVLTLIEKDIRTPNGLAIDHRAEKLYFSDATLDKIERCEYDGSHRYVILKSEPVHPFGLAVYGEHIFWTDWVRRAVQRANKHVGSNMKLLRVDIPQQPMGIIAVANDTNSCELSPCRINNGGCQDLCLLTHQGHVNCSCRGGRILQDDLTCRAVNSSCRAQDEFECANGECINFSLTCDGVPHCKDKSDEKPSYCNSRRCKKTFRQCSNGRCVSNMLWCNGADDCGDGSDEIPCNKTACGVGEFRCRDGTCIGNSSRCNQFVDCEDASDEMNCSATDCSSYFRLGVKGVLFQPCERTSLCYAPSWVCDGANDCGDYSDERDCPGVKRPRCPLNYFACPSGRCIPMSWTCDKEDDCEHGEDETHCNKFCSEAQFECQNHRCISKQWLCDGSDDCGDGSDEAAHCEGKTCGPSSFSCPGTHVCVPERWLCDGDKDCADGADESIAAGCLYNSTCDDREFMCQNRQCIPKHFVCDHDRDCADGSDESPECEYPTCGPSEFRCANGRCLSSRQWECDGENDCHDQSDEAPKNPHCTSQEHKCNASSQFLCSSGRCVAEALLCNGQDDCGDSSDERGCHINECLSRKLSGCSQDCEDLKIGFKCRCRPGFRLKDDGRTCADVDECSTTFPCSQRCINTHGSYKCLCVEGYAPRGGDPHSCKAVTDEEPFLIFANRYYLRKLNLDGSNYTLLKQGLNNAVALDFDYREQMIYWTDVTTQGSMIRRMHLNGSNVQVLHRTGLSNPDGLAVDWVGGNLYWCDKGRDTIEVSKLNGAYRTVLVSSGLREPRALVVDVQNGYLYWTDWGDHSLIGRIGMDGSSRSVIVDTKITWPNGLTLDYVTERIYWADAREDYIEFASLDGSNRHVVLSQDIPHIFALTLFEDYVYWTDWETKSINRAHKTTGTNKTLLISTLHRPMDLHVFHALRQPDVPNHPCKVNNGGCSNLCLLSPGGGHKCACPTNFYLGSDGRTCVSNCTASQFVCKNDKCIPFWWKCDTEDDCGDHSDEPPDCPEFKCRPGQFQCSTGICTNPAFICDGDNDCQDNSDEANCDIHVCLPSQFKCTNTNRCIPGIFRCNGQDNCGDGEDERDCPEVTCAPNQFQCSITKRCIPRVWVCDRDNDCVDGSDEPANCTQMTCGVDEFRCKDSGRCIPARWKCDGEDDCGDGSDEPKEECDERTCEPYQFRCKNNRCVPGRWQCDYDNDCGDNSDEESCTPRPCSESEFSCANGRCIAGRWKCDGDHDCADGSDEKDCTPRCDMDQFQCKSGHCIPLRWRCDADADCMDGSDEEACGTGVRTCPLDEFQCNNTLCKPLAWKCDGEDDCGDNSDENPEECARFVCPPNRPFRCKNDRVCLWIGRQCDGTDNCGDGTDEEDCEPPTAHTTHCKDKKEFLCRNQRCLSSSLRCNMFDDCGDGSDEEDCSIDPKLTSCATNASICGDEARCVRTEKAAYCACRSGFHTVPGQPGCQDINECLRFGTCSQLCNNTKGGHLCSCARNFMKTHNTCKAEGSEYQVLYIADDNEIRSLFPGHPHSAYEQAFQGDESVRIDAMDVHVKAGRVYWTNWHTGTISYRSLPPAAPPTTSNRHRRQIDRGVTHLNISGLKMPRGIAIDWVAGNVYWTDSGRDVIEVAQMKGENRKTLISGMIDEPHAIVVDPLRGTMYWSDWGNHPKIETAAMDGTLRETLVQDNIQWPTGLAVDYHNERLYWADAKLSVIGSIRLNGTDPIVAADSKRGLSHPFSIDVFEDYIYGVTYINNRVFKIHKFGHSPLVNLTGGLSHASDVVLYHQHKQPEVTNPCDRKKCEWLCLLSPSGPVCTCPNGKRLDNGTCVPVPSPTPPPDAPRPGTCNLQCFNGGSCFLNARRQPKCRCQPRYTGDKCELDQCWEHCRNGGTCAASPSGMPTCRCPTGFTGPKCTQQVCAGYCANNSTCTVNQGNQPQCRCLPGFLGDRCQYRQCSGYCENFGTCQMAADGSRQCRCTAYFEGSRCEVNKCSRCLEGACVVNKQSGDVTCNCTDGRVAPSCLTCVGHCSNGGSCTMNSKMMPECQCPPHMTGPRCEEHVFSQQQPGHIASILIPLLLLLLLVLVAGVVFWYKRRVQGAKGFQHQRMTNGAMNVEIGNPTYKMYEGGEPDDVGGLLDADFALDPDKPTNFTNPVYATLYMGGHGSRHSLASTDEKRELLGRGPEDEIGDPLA
HCRTR1: Orexin/Hypocretin receptor type 1 (HCRTR1, Homo sapiens, UniProt O43613)
PPIA: Peptidyl-prolyl cis-trans isomerase A (PPIA, Homo sapiens, UniProt P62937)
Chain of UniProt P62937 (whole entry, looked up): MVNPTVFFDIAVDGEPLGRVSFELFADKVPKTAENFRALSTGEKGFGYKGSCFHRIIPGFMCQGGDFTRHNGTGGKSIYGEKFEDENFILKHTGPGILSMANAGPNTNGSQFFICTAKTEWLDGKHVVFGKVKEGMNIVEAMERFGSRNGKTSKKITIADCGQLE
GRB2: Growth factor receptor-bound protein 2 (GRB2, Homo sapiens, UniProt P62993)
Chain of UniProt P62993 (whole entry, looked up): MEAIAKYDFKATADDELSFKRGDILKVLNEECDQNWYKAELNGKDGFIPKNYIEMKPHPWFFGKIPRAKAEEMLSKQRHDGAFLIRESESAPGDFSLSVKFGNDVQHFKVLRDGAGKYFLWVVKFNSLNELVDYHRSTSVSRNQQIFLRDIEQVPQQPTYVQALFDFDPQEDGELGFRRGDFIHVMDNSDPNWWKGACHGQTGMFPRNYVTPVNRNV
LRP1 CR3 domain: LRP1, CR3 domain (Homo sapiens, UniProt Q07954)
Chain of UniProt Q9UGC6 (whole entry, looked up): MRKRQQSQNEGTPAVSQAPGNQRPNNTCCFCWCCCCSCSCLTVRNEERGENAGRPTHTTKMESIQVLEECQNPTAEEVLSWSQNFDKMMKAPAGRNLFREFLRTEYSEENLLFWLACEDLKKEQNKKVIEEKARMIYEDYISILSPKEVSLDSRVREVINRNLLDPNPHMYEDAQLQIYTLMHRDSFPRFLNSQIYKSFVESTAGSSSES

Molecule	target	test	test system	setting	Kd
CC(C)C[C@H](NC(=O)[C@H](CCCNC(=N)N)NC(=O)[C@@H](N)CC(N)=O)C(=O)N[C@@H](CC(C)C)C(=O)N[C@H](C(=O)NCC(=O)O)[C@@H](C)O	dnaK	peptide binding, surface plasmon resonance		with: ATP	0.891 µM
NC[C@@H]1O[C@H](O[C@H]2[C@@H](O)[C@H](O[C@@H]3[C@@H](O)[C@H](N)C[C@H](N)[C@H]3O[C@H]3O[C@H](CO)[C@@H](O)[C@H](O)[C@H]3N)O[C@@H]2CO)[C@H](N)[C@@H](O)[C@@H]1O	HIV-1 SL4 RNA stem-loop	binding, ESI-FTMS titration		pH 7.5	8 ± 1.1 µM
Nc1ncnc2c1ncn2[C@@H]1O[C@H](COP(=O)(O)OP(=O)(O)OP(=O)(O)O)[C@@H](O)[C@H]1O	MET (Homo sapiens, UniProt P08581)				74 µM
Cc1cn([C@H]2C[C@H](O)[C@@H](COP(=O)(O)OP(=O)(O)OP(=O)(O)O)O2)c(=O)[nH]c1=O	DNA polymerase 3 (dpo3, Saccharolobus solfataricus, UniProt P95979, D236A)	nucleotide binding, substrate, single-turnover kinetics		pH 7.5, 37 °C, correct incorporation	57 ± 8 µM
NC(=O)C1=CN([C@@H]2O[C@H](COP(=O)(O)OP(=O)(O)OC[C@H]3O[C@@H](n4cnc5c(N)ncnc54)[C@H](O)[C@@H]3O)[C@@H](O)[C@H]2O)C=CC1	Enoyl-ACP reductase (Thermus thermophilus, UniProt P83818)	substrate, stopped-flow reductive half-reaction			300 µM
Aspartic acid methyl ester	LRP1 CR8 domain	tryptophan fluorescence titration		pH 5.5, CR8 domain, low ionic strength	78000 ± 3000 µM
COc1cc2c(cc1-c1c(C)noc1C)[nH]c1nc(C)nc(-c3ccnc4ccccc34)c12	non-BET bromodomain proteins	binding, BROMOscan		excluding CREBBP, EP300, CECR2	> 4 µM
OCCCCn1cnc2cc(Cl)c(Cl)cc21	Regulator of G-protein signaling 17 (Homo sapiens, UniProt Q9UGC6)	binding, NMR			1500 µM
CCOc1cc2c(cc1OC)CCN(CC(=O)NCc1ccccn1)C2Cc1ccc(OC)c(OC)c1 (stereo not shown)	HCRTR1				0.0874 ± 0.012 µM
Nc1nc2ncc(CNc3ccc(C(=O)N[C@@H](CCC(=O)O)C(=O)O)cc3)nc2c(=O)[nH]1	FOLR1 (Bos taurus, UniProt P02702)	binding, SPR			11 µM
phosphatidylinositol 3,4-bisphosphate	Src kinase-associated phosphoprotein 2, PH domain (Skap2, Mus musculus, UniProt Q3UND0)	fluorescence polarization direct titration		pH 6.5, 21 °C, compound labelled with BODIPY TMR-X	40 µM
CCCC(=O)Oc1cc2c(cc1OC)CCN(CC(=O)NCc1ccccc1)C2Cc1ccc(OC)c(OC)c1 (stereo not shown)	HCRTR1				0.0785 ± 0.024 µM
CC(=O)O[C@H]1C(=O)[C@@]2(C)[C@H]([C@H](OC(=O)c3ccccc3)[C@]3(O)C[C@H](OC(=O)[C@H](O)[C@@H](NC(=O)c4ccccc4)c4ccccc4)C(C)=C1C3(C)C)[C@]1(OC(C)=O)CO[C@@H]1C[C@@H]2O	Cytochrome P450 2C8 (CYP2C8, Homo sapiens, UniProt P10632, K399R/R139K)	binding, equilibrium spectral titration	purified enzyme	pH 7.4, 25 °C, second site, two-site model, with: 2 µM enzyme	11.7 ± 7.6 µM
N[C@@H](CCCNC1=NC(=O)CN1)C(=O)O	AGER (Homo sapiens, UniProt Q15109)	binding, fluorescence		pH 6.5	0.043 µM
CC1=C[C@H](O)CC(C)(C)[C@H]1/C=C/C(C)=C/C=C/C(C)=C/C=C/C=C(C)/C=C/C=C(C)/C=C/C1=C(C)C[C@@H](O)CC1(C)C	GSTP1 (Homo sapiens, UniProt P09211)	surface plasmon resonance		25 °C, 1:1 binding model	1.3 ± 0.01 µM
COC(=O)c1cc(Cc2ccc(NC(=O)c3ccc(Cl)cc3)c(C(=O)OC)c2)ccc1NC(=O)c1ccc(Cl)cc1	PPIA	binding, SPR		pH 7.4	140 µM
CC(C)C[C@H](NC(=O)[C@H](CC(N)=O)NC(=O)[C@H](CCCNC(=N)N)NC(=O)[C@H](CC(=O)O)NC(=O)[C@@H](NC(=O)[C@H](C)NC(=O)[C@@H]1CCCN1C(=O)[C@@H]1CCCN1)C(C)C)C(=O)N[C@@H](CCCCN)C(=O)N1CCC[C@H]1C(=O)N[C@@H](CC(=O)O)C(=O)N[C@@H](CCCNC(=N)N)C(=O)O	GRB2	binding, ITC		pH 8	85 µM
O=C(O)CC(O)(CC(=O)O)C(=O)O	SLC4A1 (Homo sapiens, UniProt P02730)	chloride exchange flux	human red blood cells	0 °C, external pH 6.8, outward-facing state	3800 µM
COC(=O)[C@@H](N)CCCN=C(N)N	LRP1 CR3 domain	tryptophan fluorescence titration		pH 7.4, 298 K, CR3 domain, ionic strength 0.02	760 ± 60 µM
CCCCOc1cc2c(cc1OC)CCN(CC(=O)NCc1ccccc1)C2Cc1ccc(OC)c(OC)c1 (stereo not shown)	HCRTR1				0.0547 ± 0.023 µM
COC(=O)[C@@H](N)Cc1c[nH]cn1	LRP1 CR8 domain	tryptophan fluorescence titration		pH 5.5, CR8 domain, low ionic strength	290 ± 10 µM
C[C@@H](O)[C@H](NC(=O)[C@H](CC(N)=O)NC(=O)[C@H](CC(N)=O)NC(=O)[C@H](CCCNC(=N)N)NC(=O)[C@@H](N)CC(N)=O)C(=O)NCC(=O)O	dnaK	peptide binding, surface plasmon resonance		with: ADP	0.855 µM

Molecule	target	test	test system	setting	Kd
COc1ccc(CC2c3cc(OC)c(OC)cc3CCN2CC(=O)NCc2ccccc2)cc1OC (stereo not shown)	HCRTR1				0.199 ± 0.047 µM
COC(=O)[C@@H](N)CCCCN	LRP1 CR3 domain	binding, tryptophan fluorescence titration	isolated CR3 domain	pH 7.4, 298 K, ionic strength 0.02	220 ± 30 µM
CC(C)C[C@H](NC(=O)[C@H](CC(N)=O)NC(=O)[C@H](CCCNC(=N)N)NC(=O)[C@H](C)NC(=O)[C@@H](NC(=O)[C@@H]1CCCN1C(=O)[C@@H]1CCCN1C(=O)[C@@H]1CCCN1)C(C)C)C(=O)N[C@@H](CCCCN)C(=O)N1CCC[C@H]1C(=O)N[C@@H](CC(=O)O)C(=O)N[C@@H](CCCNC(=N)N)C(=O)O	GRB2	binding, ITC		pH 8	90 µM
NC[C@H]1O[C@H](O[C@H]2[C@H](O)[C@@H](O[C@H]3O[C@H](CO)[C@@H](O)[C@H](N)[C@H]3O)[C@H](N)C[C@@H]2N)[C@H](N)C[C@@H]1O	HIV-1 nucleocapsid-SL2 RNA complex	binding, ESI-FTMS		pH 7.5	10.8 ± 1.7 µM
O=C(O)c1cc(Cc2ccc(NCc3ccccc3)c(C(=O)O)c2)ccc1NCc1ccccc1	PPIA	binding, SPR		pH 7.4	184 µM
CC[n+]1c(-c2ccccc2)c2cc(N)ccc2c2ccc(N)cc21	HIV-1 SL4 RNA stem-loop	binding, ESI-FTMS titration		pH 7.5	12.7 ± 1.6 µM
C[C@H](NC(=O)[C@@H](N)CC(=O)O)C(=O)N1CCC[C@H]1C(=O)N1CCC[C@H]1C(=O)N1CCC[C@H]1C(=O)N[C@@H](CCCNC(=N)N)C(=O)N1CCC[C@H]1C(=O)N1CCC[C@H]1C(=O)N[C@@H](CCCCN)C(=O)N1CCC[C@H]1C(=O)N[C@@H](Cc1c[nH]cn1)C(=O)N1CCC[C@H]1C(=O)O	GRB2	binding, ITC		pH 8	323 µM
O=P(O)(O)O[C@@H]1[C@H](O)[C@H](O)[C@@H](OP(=O)(O)O)[C@H](OP(=O)(O)O)[C@H]1O	Arf-GAP with SH3 domain, ANK repeat and PH domain-containing protein 1, PH domain (Asap1, Mus musculus, UniProt Q9QWY8)	isothermal titration calorimetry		25 °C	≥ 100 µM
COC(=O)[C@H](CCCCN)NC(C)=O	LRP1 CR3 domain	binding, tryptophan fluorescence titration	isolated CR3 domain	pH 7.4, 298 K, ionic strength 0.17	2400 ± 120 µM
CC(=O)N[C@H]1C(O)O[C@H](CO)[C@@H](O[C@@H]2O[C@H](CO)[C@H](O)[C@H](O)[C@H]2O)[C@@H]1O (stereo partly shown)	Galectin-1 (LGALS1, Homo sapiens, UniProt P09382)				81.7 ± 1.7 µM
COc1ccccc1C(=O)Nc1ccc(C(=O)Nc2ccccc2C(=O)O)cc1	Paired box protein Pax-2, paired domain (Pax2, Mus musculus, UniProt P32114)	binding, biolayer interferometry			1.35 to 1.5 µM
c1ccc2nc3ccccc3cc2c1	HIV-1 SL4 RNA stem-loop	binding, ESI-FTMS titration		pH 7.5	12.7 ± 1.4 µM
CCCOc1cc2c(cc1OC)CCN(CC(=O)NCc1ccccn1)C2Cc1ccc(OC)c(OC)c1 (stereo not shown)	HCRTR1				0.0206 ± 0.0055 µM
CSCC[C@H](NC(=O)[C@H](CC(C)C)NC(=O)[C@H](CCCCN)NC(=O)[C@H](CCCCN)NC(=O)[C@H](Cc1c[nH]cn1)NC(=O)[C@H](CCCNC(=N)N)NC(=O)[C@H](CO)NC(=O)[C@@H](NC(=O)[C@H](CO)NC(=O)[C@H](CCC(N)=O)NC(=O)CNC(=O)[C@H](CCCCN)NC(=O)[C@H](CCCCN)NC(=O)[C@H](CO)NC(=O)[C@H](CCCCN)NC(=O)[C@H](CC(C)C)NC(=O)[C@H](Cc1c[nH]cn1)NC(=O)[C@H](CO)NC(=O)[C@H](Cc1ccc(O)cc1)NC(C)=O)[C@@H](C)O)C(=O)N[C@@H](Cc1ccccc1)C(=O)N[C@@H](CCCCN)C(=O)N[C@H](C(=O)N[C@@H](CCC(=O)O)C(N)=O)[C@@H](C)O	Protein S100-B (Homo sapiens, UniProt P04271)	binding, NMR line shape analysis		35 °C, low salt	1 ± 0.5 µM
CC[C@H]1OC(=O)[C@H](C)C(=O)[C@H](C)[C@@H](O[C@@H]2O[C@H](C)C[C@H](N(C)C)[C@H]2O)[C@](C)(OC)C[C@@H](C)C(=O)[C@H](C)[C@H]2N(CCCCn3cnc(-c4cccnc4)c3)C(=O)O[C@]12C	rplD/rplV (Escherichia coli, UniProt P60723+P61175)	binding		high-affinity site, with: 4.5 mM Mg2+ and 150 mM NH4+	0.00833 ± 0.00116 µM
COc1ccc(CC2c3cc(OC)c(OC)cc3CCN2CC(=O)NCC(N)=O)cc1OC (stereo not shown)	HCRTR1				> 10 µM
CC(=O)OC1OC(OC(C)=O)[C@@H]2CCC=C[C@H]12 (stereo partly shown)	PPIA	binding, SPR		pH 4.5	> 10 µM
COc1ccc(CC2c3cc(OC)c(OC)cc3CCN2CC(=O)NCc2cccnc2)cc1OC (stereo not shown)	HCRTR1				0.152 ± 0.041 µM
COCc1c(C(C)C)nc(C(C)C)c(/C=C/[C@@H](O)C[C@@H](O)CC(=O)O)c1-c1ccc(F)cc1	Cytochrome P450 2C8 (CYP2C8, Homo sapiens, UniProt P10632)	binding, equilibrium spectral titration	purified enzyme	pH 7.4, 25 °C, second site, two-site model, with: 2 µM enzyme	3.9 ± 9.3 µM
COc1ccc(CC2c3cc(OC)c(OC)cc3CCN2CC(=O)N2CCc3ccccc3C2)cc1OC (stereo not shown)	HCRTR1				3.03 ± 0.17 µM
c1ccc2c3c(ccc2c1)-c1cccc2cccc-3c12	Cytochrome P450 1B1 (CYP1B1, Homo sapiens, UniProt Q16678)	binding, fluorescence		pH 7.4	< 2.5 µM and 1.8 µM

For quick reference, copied from above:
Molecule	target	test	test system	setting	Kd
CCOc1cc2c(cc1OC)CCN(CC(=O)NCc1ccccn1)C2Cc1ccc(OC)c(OC)c1 (stereo not shown)	HCRTR1				0.0874 ± 0.012 µM
Nc1nc2ncc(CNc3ccc(C(=O)N[C@@H](CCC(=O)O)C(=O)O)cc3)nc2c(=O)[nH]1	FOLR1 (Bos taurus, UniProt P02702)	binding, SPR			11 µM
phosphatidylinositol 3,4-bisphosphate	Src kinase-associated phosphoprotein 2, PH domain (Skap2, Mus musculus, UniProt Q3UND0)	fluorescence polarization direct titration		pH 6.5, 21 °C, compound labelled with BODIPY TMR-X	40 µM
